Assay results of several laboratories.
Values joined by “and” are separate records of one study, mostly repeats; a detail may differ. ± gives the spread as reported.

SMILES	cell line	assay	test system	setting	how to read	quantity	result
Cn1cnc([N+](=O)[O-])c1Sc1ccccc1C(=O)NCCn1ccc(=O)c2cc3c(cc21)OCO3	PHA-P-stimulated PBMC pooled	cytotoxicity, XTT	–	7 days	–	TC50	> 100 µM
Cc1cccc2cc[nH]c12	uninfected HCT-8	cytotoxicity, Hoechst nuclei count	–	–	–	EC50	1860 µM
Cc1ccc(-c2nn(-c3ccccc3)cc2C=Nc2c(N)nc(S)nc2O)cc1	CCRF-CEM	cytotoxicity, differential nuclear staining	–	48 h	–	CC50	17 ± 0.79 µM
NS(=O)(=O)c1ccc(NC(=S)N2CCN(C/C=C/c3ccccc3)CC2)cc1	PH5CH8 hepatocytes	high-content cell count	–	72 h	–	CC50	> 10 µM
CC(C)=CC[C@]12Oc3cc(O)c([C@H]4C=C(C)C[C@H](c5ccc(O)cc5O)[C@H]4C(=O)c4ccc(O)cc4O)c(O)c3C(=O)[C@@]1(O)Oc1cc(O)ccc12	BEAS-2B	enzyme activity, inducer, fluorogenic substrate imaging	–	10 µM, 24 h	baseline: control	CYP1A1 induction	0.89 fold
CCCCCCCCCCCC[N+](C)(C)CCOc1ccccc1	PH5CH8 hepatocytes	high-content cell count	–	72 h, oleate lipid loaded	–	CC50	4.9 µM
CCCC(=O)OCSc1ccccc1C(=O)NCCn1ccc(=O)c2cc3c(cc21)OCO3	PHA-P-stimulated PBMC pooled	cytotoxicity, XTT	–	7 days	–	TC50	> 100 µM
Cc1ccc2cc[nH]c2c1	uninfected HCT-8	cytotoxicity, Hoechst nuclei count	–	–	–	EC50	1140 µM
CN1c2c(C(=O)Nc3ccc(NS(C)(=O)=O)cc3)nn(-c3ccc(Cl)cc3)c2-c2ccccc2S1(=O)=O	Huh-9-13	Nile red staining	–	100 µM, 24 h	–	neutral lipid content	decreased
CC(C)=CCc1c(O)ccc(C(=O)[C@@H]2[C@@H](c3c(O)cc(O)c4c(=O)c(CC=C(C)C)c(-c5ccc(O)cc5O)oc34)C=C(C)C[C@H]2c2ccc(O)cc2O)c1O	BEAS-2B	fluorogenic substrate	–	10 µM, 24 h	baseline: control	CYP1A1 induction	1.05 fold
C[C@H]1O[C@@H](O[C@H]2[C@@H](O)C[C@H](O[C@H]3[C@@H](O)C[C@H](O[C@H]4CC[C@@]5(C)[C@H](CC[C@@H]6[C@@H]5C[C@@H](O)[C@]5(C)[C@@H](C7=CC(=O)OC7)CC[C@]65O)C4)O[C@@H]3C)O[C@@H]2C)C[C@H](O)[C@@H]1O	PH5CH8 hepatocytes	high-content cell count	–	72 h, oleate lipid loaded	–	CC50	0.052 µM
CCCCCCCC[N+](CCCCCCCC)(CCCCCCCC)CCCCCCCC.[Br-]	hTERT-RPTEC parental	LDH release	culture medium	concentration not given, 24 h, 96-well plate	–	LDH activity in medium	72.2 mU/mL
O=c1c(O)c(-c2ccc(O)cc2)oc2c(O)c(O)cc(O)c12	BEAS-2B	enzyme activity, inducer, fluorogenic substrate imaging	–	10 µM, 24 h	baseline: control	CYP1A1 induction	2.1 fold
CCCS(=O)(=O)Oc1ccc(C=NNC(=O)CSc2nc3c(C)cccc3c(=O)n2-c2ccccc2)cc1OC	BJ1	MTT	–	100 µM	–	cytotoxicity	52.4 ± 3.58%
Nc1c(CC(=O)O)cccc1C(=O)c1ccc(Br)cc1	THLE-2 transduced with Ad-UGT1A4	cytotoxicity	–	48 h	–	IC50	220 ± 20 µM
C[C@H]1[C@H](OC(=O)CCC(=O)O)O[C@@H]2O[C@@]3(C)CC[C@H]4[C@H](C)CC[C@@H]1[C@@]24OO3	human primary coronary endothelial cells	cell viability	–	–	–	highest non-toxic concentration	> 50 µM
COc1cccc2[nH]ccc12	uninfected HCT-8	cytotoxicity, Hoechst nuclei count	–	–	–	EC50	4160 µM
CC(=O)Nc1cccc(-n2c(=O)n(C3CC3)c(=O)c3c(Nc4ccc(I)cc4F)n(C)c(=O)c(C)c32)c1	COLO 205	resazurin	–	50.00 nM, 72 h, unit not given	baseline: DMSO	viability	0.0867 and 0.0603
COc1ccc2[nH]ccc2c1	uninfected HCT-8	cytotoxicity, Hoechst nuclei count	–	–	–	EC50	7180 µM
C=C(C)C(CC=C(C)C)Cc1c(O)cc(OC)c2c1O[C@H](c1ccc(O)cc1O)CC2=O (single isomer, unassigned; (-))	COLO 205	cytotoxicity, MTT	–	48 h	–	IC50	34.2 µM
CC(C)Oc1ccc2c(=O)c(-c3ccccc3)coc2c1	BEAS-2B	enzyme activity, inducer, fluorogenic substrate imaging	–	10 µM, 24 h	baseline: control	CYP1A1 induction	1.14 fold

SMILES	cell line	assay	test system	setting	how to read	quantity	result
Fc1ccc(N/N=C/c2ccc(-c3cccc(/C=N/Nc4ccc(F)cc4F)c3)cc2)c(F)c1	BEAS-2B	–	–	15.5 µg/mL	–	cytotoxicity	not toxic
COC[C@@H](CC(C)C)NC(=O)c1ccc(C)c(C)c1	primary human lymphocytes	–	–	110 µg/mL, 20 h	–	mitotic index	8.5
CC(C)(c1ccc(O)cc1)c1ccc(O)cc1	HepG2 spheroids, dissociated	annexin V-FITC/PI flow cytometry	–	1 µM, 96 h	–	viable cells	44.3 ± 4.53%
Cc1c(C)c2c(c(C)c1O)CCC(C)(COc1ccc(CC3SC(=O)NC3=O)cc1)O2 (centres unmarked)	THLE-2 transduced with Ad-UGT1A4	cytotoxicity	–	48 h	–	IC50	120 ± 11 µM
COc1cccc2cc[nH]c12	uninfected HCT-8	cytotoxicity, Hoechst nuclei count	–	–	–	EC50	1390 µM
Cc1ncc([N+](=O)[O-])n1CCOC(=O)c1ccccc1	LMH chicken hepatoma	–	–	–	–	CC50	269 µM
COc1ccc(-c2cc(=O)c3c(O)cc(O)c(-c4cc(-c5cc(=O)c6c(O)cc(OC)cc6o5)ccc4OC)c3o2)cc1	BEAS-2B	fluorogenic substrate	–	10 µM, 24 h	baseline: control	CYP1A1 induction	0.58 fold
COc1cccc(CN(CCN(CCN(C)C)Cc2ccccc2)Cc2ccccc2)c1	WI-38	propidium iodide flow cytometry	–	15 µM, 21 h	–	apoptotic cells	9.6%
CCCC(=O)OCSc1ccccc1C(=O)NCCn1cc(C(=O)NCc2cccc(C)n2)c(=O)c2cc3c(cc21)OCO3	PHA-P-stimulated PBMC pooled	cytotoxicity, XTT	–	7 days	–	TC50	> 100 µM
CCn1c2ccccc2c2cc(-n3nncc3-c3ccccc3)ccc21	MDA-MB-231	cell detachment	detached cell population	concentration not given, 24 h	–	viable cells	30 to 50%
CC(C)=CCc1cc(-c2coc3cc(O)ccc3c2=O)ccc1O	BEAS-2B	enzyme activity, inducer, fluorogenic substrate imaging	–	10 µM, 24 h	baseline: control	CYP1A1 induction	1.28 fold
Oc1ccc2cc[nH]c2c1	uninfected HCT-8	cytotoxicity, Hoechst nuclei count	–	–	–	EC50	> 8000 µM
COc1cc2c(=O)c(-c3ccc(O)cc3)coc2cc1O[C@@H]1O[C@H](CO)[C@@H](O)[C@H](O)[C@H]1O	BEAS-2B	fluorogenic substrate	–	10 µM, 24 h	baseline: control	CYP1A1 induction	1.34 fold
COc1cc2ncnc(Nc3ccc(Oc4ccccc4)c(C)c3C)c2cc1OC.Cl	NCI-H2087 (BRAF L597V)	resazurin	–	1 µM, 72 h, unit not given, with: trametinib 1 µM	baseline: DMSO	viability	0.803 and 1.08
Cc1c(C(=O)O)ccc2c3n(nc12)[C@@H]1[C@H](C3)N(CC2CC2)[C@@]2(C(=O)Nc3cc(Cl)ccc32)[C@H]1c1cccc(Cl)c1F	human bone marrow megakaryocyte progenitors	megakaryocyte colony formation	collagen-based medium with cytokines	10 to 12 days	–	IC90	0.119 µM
CC(=O)NS(=O)(=O)c1ccc(NC(=O)c2ccccc2C(=O)O)cc1	PH5CH8 hepatocytes	high-content cell count	–	72 h, oleate lipid loaded	–	CC50	> 10 µM
Nc1nc2c(ncn2COCCO)c(=O)[nH]1	HEL or HeLa cells	cell viability	–	3 (unit not given)	–	CC50	> 250 µM
Cc1cc(C(=O)NC(C)(C)COc2cccc3c2C(N)=NS(=O)(=O)N3)cc(C)n1	human peripheral blood lymphocytes	CBPI, preliminary test	–	6 µg/mL, 4 h	baseline: vehicle control	cytotoxicity	5%
C=C(C)[C@@H]1CC[C@]2(C(=O)O)CC[C@]3(C)[C@H](CC[C@@H]4[C@@]5(C)CC[C@@H](O)C(C)(C)[C@@H]5CC[C@]43C)[C@@H]12	BEAS-2B	enzyme activity, inducer, fluorogenic substrate imaging	–	10 µM, 24 h	baseline: control	CYP1A1 induction	0.83 fold
O=c1ncn2nc(Sc3ccc(F)cc3F)ccc2c1-c1c(Cl)cccc1Cl	iCell cardiomyocytes hiPSC-derived	CellTiter-Glo	–	concentration not given, 24 h	baseline: vehicle	ATP level	95.4%

A few entries again:
SMILES	cell line	assay	test system	setting	how to read	quantity	result
CC(=O)NS(=O)(=O)c1ccc(NC(=O)c2ccccc2C(=O)O)cc1	PH5CH8 hepatocytes	high-content cell count	–	72 h, oleate lipid loaded	–	CC50	> 10 µM
Cc1c(C)c2c(c(C)c1O)CCC(C)(COc1ccc(CC3SC(=O)NC3=O)cc1)O2 (centres unmarked)	THLE-2 transduced with Ad-UGT1A4	cytotoxicity	–	48 h	–	IC50	120 ± 11 µM
Cc1ccc2cc[nH]c2c1	uninfected HCT-8	cytotoxicity, Hoechst nuclei count	–	–	–	EC50	1140 µM
Cc1cc(C(=O)NC(C)(C)COc2cccc3c2C(N)=NS(=O)(=O)N3)cc(C)n1	human peripheral blood lymphocytes	CBPI, preliminary test	–	6 µg/mL, 4 h	baseline: vehicle control	cytotoxicity	5%
CC(C)(c1ccc(O)cc1)c1ccc(O)cc1	HepG2 spheroids, dissociated	annexin V-FITC/PI flow cytometry	–	1 µM, 96 h	–	viable cells	44.3 ± 4.53%
